Measurements from different studies.
Compare with care: the assays were run in different laboratories. ± marks the error that the study gave.
Technique: steady-state kinetics
B1: protein (Rhodopseudomonas palustris, UniProt Q6N3R9); chain MSNVRVLATDLAFPEGPVVMPDGSVVLVEIRAQQLTRVWPDGRKEVVAKVPGGPNGAALGPDGKMYICNNGGFGWFPSRGTMMPGAPAPHEYIGGSIQRVDLQSGEVETLFDKCGEHPLKGPNDLVFDKHGGLWFTDLGKRRARDMDVGAAYYIKPGMTEITEQVFGTLPLNGIGLSPDEATMYAAETPTGRLWAFDLSGPGEVKPRDVIYRGEKGKPICGLGGYQMFDSLAVEASGNVCVATLVSGCISVIAPDGTLVEQVPTGDRVTTNIAFGGPDLKTAYITLSGKGELIAMDWSRPGLPLNFLNK
B2: protein F432Y (Streptomyces toyocaensis, UniProt Q8KLK7); chain MTTVLPPLEDTDGLWAALTEAAASVEKLLATLPEHGARSSAERAEIAAAHDAARALRVRFLDTHADAVYDRLTDHRRVHLRLAELVEAAATAFPGLVPTQQQLAVERSLPQAAKEGHEIDQGIFLRAVLRSPLAGPHLLDAMLRPTPRALELLPEFVRTGEVEMEAVHLERRDGVARLTMCRDDRLNAEDGQQVDDMETAVDLALLDPGVRVGLLRGGVMSHPRYRGKRVFSAGINLKYLSQGGISLVDFLMRRELGYIHKLVRGVLTNDDRPGWWHSPRIEKPWVAAVDGFAIGGGAQLLLVFDRVLASSDAYFSLPAAKEGIIPGAANLRLGRFAGPRVSRQVILEGRRIWAKEPEARLLVDEVVEPDELDAAIERSLTRLDGDAVLANRRMLNLADESPDGFRAYMAEFALMQALRLYGHDVIDKVGRYGGRPPA
B3: nitrilase Y142F (Rhodococcus rhodochrous, UniProt A4LA85); chain MVEYTNTFKVAAVQAQPVWFDAAKTVDKTVSIIAEAARNGCELVAFPEVFIPGYPYHIWVDSPLAGMAKFAVRYHENSLTMDSPHVQRLLDAARDHNIAVVVGISERDGGSLYMTQLIIDADGQLVARRRKLKPTHVERSVFGEGNGSDISVYDMPFARLGALNCWEHFQTLTKYAMYSMHEQVHVASWPGMSLYQPEVPAFGVDAQLTATRMYALEGQTFVVCTTQVVTPEAHEFFCENEEQRKLIGRGGGFARIIGPDGRDLATPLAEDEEGILYADIDLSAITLAKQAADPVGHYSRPDVLSLNFNQRRTTPVNTPLSTIHATHTFVPQFGALDGVRELNGADEQRALPSTHSDETDRATASI
B4: enzyme E217L/L163H/N249W (Thermobifida fusca, UniProt Q47RK4); chain MTDVYILDAVRTPFGRYGGALSGIRPDDLAAHVLRALAERSPGLDPAAVDDVFFGDANGAGEDNRNVARMAALLAGWPTSVPGVTLNRLCGSGMESVIAANRAIAVGDASLAVAGGVESMSRAPWVLPKPAQGFPTGHETLYSTTLGWRMVNPAMPEQWTVSHGESTEQVAATYGISRAEQDAFALRSHERAARAWAEGVFDAEITQIPGAELERDLSIRETSAEKLAALKPAFRPDGTITAGNASPLWDGAAALLIGDAAAAERVGREPLARIVSRGVAAVDPDVFGIGPVQAAEIALRRAGIGWDDLSVVELNEAFAAQSLACLKLWPDLDPEIVNPNGGAIAIGHPLGASGARIVGTLAHELHRRGGGWGLAAICIGVGQGLAVVLHR
B5: enzyme W1065M (Limosilactobacillus reuteri, UniProt Q5SBN3); chain INGQQYYIDPTTGQPRKNFLLQNGNDWIYFDKDTGAGTNALKLQFDKGTISADEQYRRGNEAYSYDDKSIENVNGYLTADTWYRPKQILKDGTTWTDSKETDMRPILMVWWPNTVTQAYYLNYMKQYGNLLPASLPSFSTDADSAELNHYSELVQQNIEKRISETGSTDWLRTLMHEFVTKNSMWNKDSENVDYGGLQLQGGFLKYVNSDLTKYANSDWRLMNRTATNIDGKNYGGAEFLLANDIDNSNPVVQAEELNWLYYLMNFGTITGNNPEANFDGIRVDAVDNVDVDLLSIARDYFNAAYNMEQSDASANKHINILEDMGWDDPAYVNKIGNPQLTMDDRLRNAIMDTLSGAPDKNQALNKLITQSLVNRANDNTENAVIPSYNFVRAHDSNAQDQIRQAIQAATGKPYGEFNLDDEKKGMEAYINDQNSTNKKWNLYNMPSAYTILLTNKDSVPRVYYGDLYQDGGQYMEHKTRYFDTITNLLKTRVKYVAGGQTMSVDKNGILTNVRFGKGAMNATDTGTDETRTEGIGVVISNNTNLKLNDGESVVLHMGAAHKNQKYRAVILTTEDGVKNYTNDTDAPVAYTDANGDLHFTNTNLDGQQYTAVRGYANPDVTGYLAVWVPAGAADDQDARTAPSDEAHTTKTAYRSNAALDSNVIYEGFSNFIYWPTTESERTNVRIAQNADLFKSWGITTFELAPQYNSSKDGTFLDSIIDNGYAFTDRYDLGMSTPNKYGSDEDLRNALQALHKAGLQAIADWVPDQIYNLPGKEAVTVTRSDDHGTTWEVSPIKNVVYITNTIGGGEYQKKYGGEFLDTLQKEYPQLFSQVYPVTQTTIDPSVKIKEWSAKYFNGTNILHRGAGYVLRSNDGKYYNLGTSTQQFLPSQLSVQDNEGYGFVKEGNNYHYYDENKQMVKDAFIQDSVGNWYYFDKNGNMVANQSPVEISSNGASGTYLFLNNGTSFRSGLVKTDAGTYYYDGDGRMVRNQTVSDGAMTYVLDENGKLVSESFDSSATEAHPLKPGDLNGQK
B6: enzyme D233E (Acetivibrio thermocellus, UniProt A3DJ38); chain MKLTIPELSLVVLIGSSGSGKSTFAKKHFKPTEVISSDFCRGLVSDDENDQTVTGAAFDVLHYIVSKRLQLGKLTVVDATNVQESARKPLIEIAKDYHCFPVAVVFNLPEKVCQERNKNRTDRQVEEYVIRKHTQQLKKSIKGLQREGFRYVYILNSPEEVEEVVFERQPLWNNKKDEHGPFDIIGDIHGCYDELKMLLEKLGYLIEEVEGGVGSGKYRVTHPEGRKVLFLGELVDRGPKITEVLKLVMGMVKSGIALCVPGNHDVKLLRKLNGRDVQITHGLDRTLEQLAKEPQEFIEEVKAFIDGLVSHYVLDDGKLVVAHAGMKEEFQGRGSGKVREFALYGETTGETDEYGLPVRYDWASDYRGKALVVYGHTPQAEVLKVNNTINIDTGCVFGGKLTAYRYPEREIVDVKALKTYYEPAKPFLPKEDMAERFEARTDNDILDINDVLGKKIITTRLMSSITIHEENSIAALEVMSRFAADPHWLIYLPPTMSPCETSKKEGMLEHPIEAFEYFRTRGVGKVVCEQKHMGSRAVVIVCKDSQVAEKRFGVLDGTAGICYTRTGRHFFDDMQLEAELIDRVRKVLDKSGFWGDFNTDWVCLDCELMPWSAKAQKLLEEQYSAVGISGRVVLDEAVKLLKQASLNKTVSFDVSRQTSGKNADINELLQRFTERSEMMQKYVEAYRKYCWPVNSIDDLKLAPFHILATEGKVHSDKNHIWHMDTIAKYCTQDDSLIMATNHILVDVTDAESVDKGIKWWEDLTASGGEGMVVKPYDFIVKNGRELLQPAVKCRGREYLRIIYGPEYTMDENIERLRNRAVGKKRSLALREFSLGMEALERFVRNEPLYRVHECVFGVLALESEPVDPRL
B7: enzyme D418A (Limosilactobacillus reuteri, UniProt Q8GP32); chain SADTNIENNDSSTVQVTTGDNDIAVKSVTLGSGQVSAASDTTIRTSANANSASSAANTQNSNSQVASSAAITSSTSSAASSNNTDSKAAQENTNTAKNDDTQKAAPANESSEAKNEPAVNVNDSSAAKNDDQQSSKKNTTAKLNKDAENVVKKAGIDPNSLTDDQIKALNKMNFSKAAKSGTQMTYNDFQKIADTLIKQDGRYTVPFFKASEIKNMPAATTKDAQTNTIEPLDVWDSWPVQDVRTGQVANWNGYQLVIAMMGIPNQNDNHIYLLYNKYGDNELSHWKNVGPIFGYNSTAVSQEWSGSAVLNSDNSIQLFYTRVDTSDNNTNHQKIASATLYLTDNNGNVSLAQVANDHIVFEGDGYYYQTYDQWKATNKGAANIAMRDAHVIEDDNGDRYLVFEASTGLENYQGEDQIYNWLNYGGDDAFNIKSLFRILSNDDIKSRATWANAAIGILKLNKDEKNPKVAELYSPLISAPMVSDEIERPNVVKLGNKYYLFAATRLNRGSNDDAWMNANYAVGDNVAMVGYVADSLTGSYKPLNDSGVVLTASVPANWRTATYSYYAVPVAGKDDQVLVTSYMTNRNGVAGKGMDSTWAPSFLLQINPDNTTTVLAKMTNQGDWIWDDSSENLDMIGDLDSAALPGERDKPVDWDLIGYGLKP
Chain of UniProt Q7V6D4 (whole entry, looked up): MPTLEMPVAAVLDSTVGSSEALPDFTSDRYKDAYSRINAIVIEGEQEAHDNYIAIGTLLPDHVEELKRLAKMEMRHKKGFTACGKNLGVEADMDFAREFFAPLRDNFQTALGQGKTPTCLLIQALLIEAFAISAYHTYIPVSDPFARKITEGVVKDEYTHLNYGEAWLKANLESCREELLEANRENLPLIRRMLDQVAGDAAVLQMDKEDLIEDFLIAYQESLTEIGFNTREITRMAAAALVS

Molecule | substrate | pH | temperature | notes | with | kcat
B1 (protein) | CCCCCCCCOC(C)=O | pH 8.3 |  | NaCl 150 mM, no saturation | CaCl2 1 mM | 0.167 s⁻¹
protein (Prochlorococcus marinus, UniProt Q7V6D4) | CCCC=O | pH 7.2 | 37 °C | apparent, micro-aerobic |  | 5.17e-05 ± 1.67e-06 s⁻¹
B2 (protein F432Y) | CC(C)(COP(=O)(O)OP(=O)(O)OC[C@H]1O[C@@H](n2cnc3c(N)ncnc32)[C@H](O)[C@@H]1OP(=O)(O)O)[C@@H](O)C(=O)NCCC(=O)NCCSC(=O)Cc1cc(O)cc(O)c1 | pH 7.5 | 24 °C |  | O2 | 0.125 ± 0.009 s⁻¹
enzyme (Paenarthrobacter nicotinovorans, UniProt P08159) | CN1CCC[C@@H]1c1ccc(O)nc1 | pH 8 | 25 °C |  |  | 77 ± 24 s⁻¹
B3 (nitrilase Y142F) | Cc1cccc(C#N)c1 | pH 7.5 | 25 °C |  |  | 0.000142 ± 3.33e-06 s⁻¹
B4 (enzyme E217L/L163H/N249W) | CC(C)(COP(=O)(O)OP(=O)(O)OC[C@H]1O[C@@H](n2cnc3c(N)ncnc32)[C@H](O)[C@@H]1OP(=O)(O)O)[C@@H](O)C(=O)NCCC(=O)NCCSC(=O)CCC(=O)O | pH 7.4 | 37 °C |  |  | 0.00983 ± 0.00233 s⁻¹
azu N30H/N36H/Q34D (Pseudomonas aeruginosa) | O=NO | pH 6.35 |  |  |  | 0.00567 s⁻¹
L-lactate oxidase (Aerococcus viridans, UniProt Q44467) | O=C1C(Cl)=CC(=Nc2ccc(O)cc2)C=C1Cl | pH 6.5 | 22 °C | varied electron acceptor, apparent | L-lactic acid 200 mM | 189 ± 11 s⁻¹
B5 (enzyme W1065M) | OC[C@H]1O[C@@](CO)(O[C@H]2O[C@H](CO)[C@@H](O)[C@H](O)[C@H]2O)[C@@H](O)[C@@H]1O | pH 4.7 | 37 °C |  |  | 7.5 ± 0.5 s⁻¹
gliT (Aspergillus fumigatus, UniProt E9RAH5) | CC(=O)NC1=C(S)/C(=C\S)NC1=O | pH 6.5 |  |  |  | 52.8 ± 12.4 s⁻¹
enzyme (Delftia acidovorans, UniProt A9BQX8) | NC(=O)C1=CN([C@@H]2O[C@H](COP(=O)(O)OP(=O)(O)OC[C@H]3O[C@@H](n4cnc5c(N)ncnc54)[C@H](O)[C@@H]3O)[C@@H](O)[C@H]2O)C=CC1 |  |  | cofactor varied |  | 16.6 ± 0.2 s⁻¹
OXA-48 (Klebsiella pneumoniae, UniProt Q6XEC0) | C[C@@H](O)[C@H]1C(=O)N2C(C(=O)O)=C(SCCN=CN)C[C@H]12 | pH 7.2 | 30 °C |  |  | 2.7 ± 0.2 s⁻¹
B6 (enzyme D233E) | Nc1ncnc2c1ncn2[C@@H]1O[C@H](CO)[C@H]2OP(=O)(O)O[C@H]21 | pH 7.5 | 45 °C |  |  | 3.25 ± 0.717 s⁻¹
B7 (enzyme D418A) | OC[C@H]1O[C@@](CO)(O[C@H]2O[C@H](CO)[C@@H](O)[C@H](O)[C@H]2O)[C@@H](O)[C@@H]1O | pH 5.5 | 50 °C | apparent |  | 360 ± 10 s⁻¹
enzyme (Campylobacter jejuni, UniProt Q0P9V0) | N=C(N)NCCCCN | pH 7 | 37 °C |  |  | 0.00533 ± 0.000333 s⁻¹

A few entries again:
Molecule | substrate | pH | temperature | notes | with | kcat
B4 (enzyme E217L/L163H/N249W) | CC(C)(COP(=O)(O)OP(=O)(O)OC[C@H]1O[C@@H](n2cnc3c(N)ncnc32)[C@H](O)[C@@H]1OP(=O)(O)O)[C@@H](O)C(=O)NCCC(=O)NCCSC(=O)CCC(=O)O | pH 7.4 | 37 °C |  |  | 0.00983 ± 0.00233 s⁻¹
